# Results from different studies.
# Compare with care: the assays were run in different laboratories. ± marks the error that the study gave.
Structure (SMILES),cell line,test,setting,scale,endpoint,result
CC(C)(C)C(=O)OCOP(=O)(OCOC(=O)C(C)(C)C)C1CCCN(O)C1=O (stereo not shown),COLO 205,,,,log TGI,-5.44 log M
COc1ccc2c(c1)c(CC(=O)[Se]CC(=O)Nc1cccc(C(F)(F)F)c1)c(C)n2C(=O)c1ccc(Cl)cc1,NCI60 colon subpanel,NCI60 five-dose screen,,,CC50,26.2 µM
COc1ccccc1-c1ccncc1C(=O)Nc1nnc(OCc2ccc(Cl)cc2)s1,HCT-116 BRCA2 wild-type,,0.125 µM,relative to: untreated,colony survival,96.2%
O=C(C[Se]C(=O)c1ccco1)Nc1cccc(C(F)(F)F)c1,NCI60 CNS subpanel,NCI60 five-dose screen,,,CC50,24.3 µM
CSCC[C@H](NC(=O)[C@@H](NC(=O)[C@H](CCC(N)=O)NC(=O)[C@H](CO)NC(=O)[C@@H](N)C(C)C)[C@@H](C)O)C(=O)N[C@@H](CCCNC(=N)N)C(=O)N[C@@H](CCC(N)=O)C(=O)N[C@H](C(=O)N[C@@H](C)C(=O)N[C@H](C(=O)N1CCC[C@H]1C(=O)N[C@@H](CC(C)C)C(=O)N[C@@H](CC(C)C)C(=O)N[C@@H](Cc1c[nH]c2ccccc12)C(=O)N[C@@H](Cc1ccccc1)C(=O)N[C@@H](Cc1c[nH]c2ccccc12)C(=O)N[C@H](C(=O)NCC(=O)N[C@@H](CO)C(=O)N[C@@H](CC(C)C)C(=O)NCCOCCOCCOCCOCCOCCOCCOCCOCCOCCOCCOCCOCCC(=O)N[C@@H](CS)C(N)=O)[C@@H](C)O)C(C)C)[C@@H](C)O,Huh-7 liver cancer,phage binding,,relative to: targeting over control phage,selectivity ratio,200 ± 60
CC1OC2OC3C4=C(OC3(C)C12O)C(=O)c1c(O)cccc1C4=O (stereo not shown),HepG2,SRB,"10 µg/mL, 48 h",negative values mean cell killing,growth percent,-64.6%
CNC(=S)N/N=C/c1ccc(OCc2ccccc2)cc1,IMR-32,,"400 µg/mL, 24 h",higher = more activity,catalase activity (OD450),0.067 a.u.
O=C(Nc1cccs1)c1cccnc1,HCT-116 NMNAT1 knockout,cell viability,,relative to: NMNAT1 knockout over control sgRNA,IC50 fold increase,6 fold
Cc1c(Cl)c(=O)oc2cc(OCCCCCC[Se]C#N)ccc12,"WiDr, multidrug-resistant",sulforhodamine B,,,GI50,11 µM
COc1ccc(NC(=O)c2ccc3[nH]c(-c4ccc(N(C)C)cc4)nc3c2)cn1,HCT-116,Caspase-Glo luminescence,"8 µM, ISRIB pre-incubation, unit not given",relative to: DMSO,caspase-3/7 activity,5.08

# Excerpt of the above:
Structure (SMILES),cell line,test,setting,scale,endpoint,result
CC1OC2OC3C4=C(OC3(C)C12O)C(=O)c1c(O)cccc1C4=O (stereo not shown),HepG2,SRB,"10 µg/mL, 48 h",negative values mean cell killing,growth percent,-64.6%
